# Measured values of several laboratories.
# Every numbered part comes from another study and shows a few of its results, in no order. Changes are numbered by the printed parent chain.

# Study 1 — method: RNA Bind-n-Seq; molecule type: RNA; matrix: in vitro; tested at: not given; baseline: input RNA pool; direction: higher = stronger binding
# Target: RING finger protein unkempt homolog, zinc fingers 1-6, GST-SBP tag (UNK, Homo sapiens, UniProt Q9C0B0, residues 30-357)
# UniProt Q9C0B0, sequence (30-357, looked up): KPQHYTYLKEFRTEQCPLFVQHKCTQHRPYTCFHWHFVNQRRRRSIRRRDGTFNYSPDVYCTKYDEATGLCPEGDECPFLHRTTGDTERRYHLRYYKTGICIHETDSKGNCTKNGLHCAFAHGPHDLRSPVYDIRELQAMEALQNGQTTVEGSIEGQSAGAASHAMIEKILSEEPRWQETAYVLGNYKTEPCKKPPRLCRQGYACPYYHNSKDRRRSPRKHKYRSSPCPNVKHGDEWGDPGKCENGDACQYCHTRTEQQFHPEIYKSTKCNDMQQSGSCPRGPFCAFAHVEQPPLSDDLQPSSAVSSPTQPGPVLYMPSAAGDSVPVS
# Setting: RNA with constant flanks, human-mouse chimeric sites, ends assumed
Oligonucleotide,bound/input enrichment [ratio]
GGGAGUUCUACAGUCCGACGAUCGAUAAGAAAAGCUUGUUGGAGACCCGCUUGCAUGUCACUGGCAGAGAACUGAGGUCCCAAAUAGCUGAAACUUUCGGAUUUCAAGAAAAUUACAUCAAGAUCGUAAUAAAUAAGAAACAGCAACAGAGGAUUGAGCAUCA,0.275
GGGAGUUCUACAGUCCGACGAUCAGAGCCCAGGAUGUUGAUGCUACAAAUCCAAAUUACGAAAUUAUGUGUAUGAUCAGAGACUUCAGAGGGAGCUUGGAUUAUAGACCAUUAACAACAGCAGAUCCUAUUGAUGAACAUAGGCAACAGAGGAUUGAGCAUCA,0.724
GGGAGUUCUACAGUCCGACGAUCCACAGAGGAGAUCUGCUGUUCCUCACGAAUUUCCGGGAGGACCCCAUCAGAGCUGGUGAAAUAGUUGUUUUUAAGGUUGAAGGAAGAGACAUUCCAAUAGUUCACAGAGUAAUCAAGGUUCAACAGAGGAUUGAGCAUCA,4.04
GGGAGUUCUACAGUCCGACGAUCGAGUCGAGCAAACUUGAAACAAUUCGUUAUCUUGCAGCCUCAGUGUUUUUACUUGCCGCGAUAGCAUUGGGGUUUUAUAUAGAUUCUAAGGAGAACUGACGAUGAUGCUGCCGCUGCUGCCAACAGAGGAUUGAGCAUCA,0.38
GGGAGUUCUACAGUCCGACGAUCAAAGAGAAACUAAAGCAAACUGAUUGAAAGAGGAUUGGCAAAGAGAAUUUCAUAGAGAAACUAGGAUUUUAUUAGCAACAUGAGUUAUAUUCCAGAGCGUCUCAGAAACCCCAGCCAAACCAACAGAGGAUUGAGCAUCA,6.67
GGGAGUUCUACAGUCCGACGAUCUUCAAAGAAAAGGGCAGCUGUGUCAUUUCAUAAGUAACUCUGGGGGAUAAGUGGAAGGUUCUUUUGUUUAAUUUUCCCCCAAAUGAAGCCAAAGUGUGUGUUGAAGAAGGAAGAAUGAAUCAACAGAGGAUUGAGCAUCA,0.187
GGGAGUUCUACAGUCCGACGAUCUAACCACAUCAAGAUGGUUGGAAAGCUGAAGCAGAACUUACUCUUGGCGUGUCUGGUGAUUAGUUCUGUGACCGUGUUUUACCUGGGCCAGCAUGCCAUGGAGUGCCAUCACCGGAUAGACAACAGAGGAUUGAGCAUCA,0.174
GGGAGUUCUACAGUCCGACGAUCGUGUCCUGCUUUCAACUUAAAUCACUGCAUUUUUACUACUGUUCUGUUAAAAUCAGGACUGUAGCGCUGUGUCACCACAUGAGAGUUCAGAAGCAGCCUUUCUGUGGAGGGUGGGAAUGACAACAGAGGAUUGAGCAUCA,0.145
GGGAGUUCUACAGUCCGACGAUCCUGUGCGGGUGACUGUCCUGGAGUGGCUGGAGUUCCCGCCGGAGCGCGGCCAGACUAAUUUUAGAAAAUGCCAAGUAGGAAAUUUGCUGAGGGUGAAGUGGUCAGAGGCCGAUGGCCUGGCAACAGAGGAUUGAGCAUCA,1.71
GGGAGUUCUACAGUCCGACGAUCUGUGCCCUGAUGGCAGCUACCUGAGUGGCAGCUGAAGUUGACUCCCUCUCCUUGCCUGAACCCCCCCCCACUGCCCCCCCAUCCCCCAGUGUCGGCUGAGAUGUUGCCUCUGCACGGUUCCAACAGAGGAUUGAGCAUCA,1.32
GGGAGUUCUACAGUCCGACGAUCAACAGAUUGUCUUUAAGCAUUCCAAGCGAGAAUGCUGAAAUAGUCAUUGUUGCCCAUGUGCCUUCUGACUGAGCUUUAAUGCUGUUCAUCCUUGAUGCUUUCCUUCACUCCAGAAUUGUUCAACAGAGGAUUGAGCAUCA,0.186

# Study 2 — target: CCNE2, cyclin fold, Cln2 fusion (human); method: yeast growth competition, sequencing; matrix: yeast; setting: weak parent motif; baseline: not given; direction: higher = stronger binding
# Starting sequence: E2F7 docking peptide (human); SSAQRRLEIPSGG; partner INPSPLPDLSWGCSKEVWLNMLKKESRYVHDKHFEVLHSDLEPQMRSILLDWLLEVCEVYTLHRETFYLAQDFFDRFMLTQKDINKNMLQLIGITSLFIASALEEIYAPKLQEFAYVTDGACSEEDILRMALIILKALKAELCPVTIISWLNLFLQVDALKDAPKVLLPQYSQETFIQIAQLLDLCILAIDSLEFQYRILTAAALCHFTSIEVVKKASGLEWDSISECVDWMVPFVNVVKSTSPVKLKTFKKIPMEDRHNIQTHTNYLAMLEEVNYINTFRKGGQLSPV
Change,normalised enrichment score
R5K I9L,0.0291
I9F,2.26
R5A,0.138
R6A,-0.96
E8A,0.545
L7A,-0.259
R5K I9F,0.334
S1A,0.333
I9A,0.409
R5A L7A,-0.144

# Study 3 — method: RNA Bind-n-Seq; molecule type: RNA; matrix: in vitro; tested at: 365 nM; baseline: no-protein control; direction: higher = stronger binding
# Target: RNA binding protein fox-1 homolog 2, RRM domain, GST-SBP tag (RBFOX2, Homo sapiens, UniProt O43251-10, residues 100-194)
# Setting: natural RNA segment, single round, ends assumed
# Residues (chain): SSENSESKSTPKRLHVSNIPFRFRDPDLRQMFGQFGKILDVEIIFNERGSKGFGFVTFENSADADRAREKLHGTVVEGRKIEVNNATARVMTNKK
Oligonucleotide,RBNS enrichment (R)
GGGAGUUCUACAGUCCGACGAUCUGUUUUGUUUUGUUUUGUUCUGUUUUUUAACGUUCUUUCACCUUUCCUCUACUUUGGCUUUGCAAAUUUCAGUCUGUAGAGCCUGAAAUUAAAUUAUUUUAUAGUGCCUGUGGAAUUCUCGGGUGCCAA,0.863
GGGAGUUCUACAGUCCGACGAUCCAAGAGAAGUUAGAGGAGAAUUAAUAUAUUUCGUGCAAAAGUACUACAAACUUAAGUGUAUGUGCUAAAACUAAAUGUAUGUAACAUUUUUUUUUUAGCAGCGCCUUUGCUGGAAUUCUCGGGUGCCAA,0.576
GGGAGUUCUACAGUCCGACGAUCAGCUAACUCAGACUCCAGUGAAGAUGCUGAUGACUGAAGCCCCAGCAUGGGCCCCAUUGCUUGGGCGGCUGCUGUAUUUUCAUUUACUCUGGCCCUUGGACUAUGGAAACUGGAAUUCUCGGGUGCCAA,0.752
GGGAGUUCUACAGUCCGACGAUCCCAGGAUGCCCAAACAGCCGCACAGGUGUCCUGUGCUUCCUGUGAGACUUCCUGGGGGAAAUAUACAAACUAAUAUAUUUUUUAAUGUUUACGUCAUUUACACUGCUGCUUGGAAUUCUCGGGUGCCAA,0.408
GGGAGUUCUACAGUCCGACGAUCUGUGUGUCUCCGCCAGAGUCACAGCAGUGCCGAGGUGUCCGCGGCAGACCACACAGACCGUCUGAAAUGCGCCCGCCUGGCGGACAGCUCCCUUCUGAAGCAGAGAAGCCUGGAAUUCUCGGGUGCCAA,0.523
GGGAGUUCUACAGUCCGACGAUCUUCCCCCAUAAUGCCAGAAAUUGGCUUAAUGAUGCUUUCACUAAAUUCAUCAAAUAGAUUGCUCCUAAAUCCAAUUGUUAAAAUUGGAUCAGAAUAAUUAUCACAGGAACUGGAAUUCUCGGGUGCCAA,0.381
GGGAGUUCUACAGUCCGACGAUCAUUCAGCAAGGCGCUAACUUGCUUAAAUGUGAAUUACUAACUUCUAAAACUGUAAUUUGAUUCACAUCUUUUCAAAUGGAGUUGGAGUUGAUUCAUAUUACAAUAUUUGUUGGAAUUCUCGGGUGCCAA,0.285
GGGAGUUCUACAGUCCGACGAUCCAGACCGUGGUGGGCCUUCAAGCUAAGGAGCUUCCUAGGUGAAAGGGGAGAUGUGAGCCUUCUCUGGAGGGAAGUUUCAUGAUUGCAUCUAUAAUGAAUAUAUUGCCUGUUGGAAUUCUCGGGUGCCAA,2.8
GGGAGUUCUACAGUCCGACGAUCGGGGCAUGUGCUGCCUGUUGUUAUGGGUUUUUUUUGCGGGGGGGGUUGCUUUUUUCUGGGGUCUUUGAGCUCCAAAAAAUAAACACUUCCUUUGAGGGAGAGCACACCUGUGGAAUUCUCGGGUGCCAA,0.716
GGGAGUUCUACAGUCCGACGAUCCGCUCAUGCGUACAACAGGGUAUGGACUAUCUGUAUGGUGCCCCAUUUUUGGCGGCCCGUAAGUAGGCUGGCUAGUCCAGGAUACUGUGGAAUAGCCACCUCUUGACCAGUGGAAUUCUCGGGUGCCAA,0.183
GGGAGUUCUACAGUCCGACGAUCUAAGUGUGUAUAUGUAGUAACUAUUUACAGACCACGCAUCCUUAUACUGUGACUUCACCUAGAUCUUCUACCAAGCUGAAGACCCUGCUGGCUCUGAAACAAUCCUUGCAUGGAAUUCUCGGGUGCCAA,3.17
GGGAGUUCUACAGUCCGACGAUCGAAACGGGCUCACCUGGACUAUAGAAUUUCUGCUGGUCAGAUAAAGACAGCAUUCCUCGGGAACCCGUGAAACUGGUUCUCUCUCUACCAAAUGGAGUCAUUCUCCUUACUGGAAUUCUCGGGUGCCAA,0.338

# Study 4 — method: protein binding microarray; molecule type: double-stranded DNA, one strand shown; matrix: in vitro; tested at: not given; baseline: not given; direction: higher = stronger binding
# Target: Histone acetyltransferase KAT6A, winged helix 1, GST fusion (KAT6A, Homo sapiens, UniProt Q92794, residues 1-85)
# Setting: 8-mer, flanks averaged, mean of 2 arrays, mostly near background
# Construct (chain): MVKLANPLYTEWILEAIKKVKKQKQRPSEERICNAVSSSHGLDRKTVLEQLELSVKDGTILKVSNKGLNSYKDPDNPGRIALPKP
Oligonucleotide,E-score
CTCCTCGC,0.0306
CCTGCACG,-0.0886
GAAGTACC,0.146
CGCCAATC,-0.0234
CGACGGGC,0.435
AAACTATC,-0.043
ATTTTTCA,-0.12
GTGGTCAA,-0.251
ATCAGCCC,-0.088
CAAGAATA,0.0513
TCCTCAAA,-0.202
ACCAAGCT,-0.212
GGTAGGAA,-0.142
ATAGCCAT,-0.0046
ATGCCGGG,0.379
CGACCCTC,-0.129
CAACATTC,-0.0756
CAAGTAGC,-0.274
ATGTCCGA,0.0536
TATGTTGA,0.0442
CAAATAAA,-0.212
ACACGGGG,0.31
AGCGCATG,0.165
ATAGAATC,-0.131
CAACTAGC,-0.0132

# Study 5 — method: aptamer microarray, sandwich; molecule type: DNA with 2'F-ANA; matrix: in vitro; tested at: 200 nM; with: Cy3 exosite-II aptamer, 400 nM; direction: higher = stronger binding; oligonucleotide: GGTTGGTGTGGTTGG
# Target: Prothrombin, mature alpha-thrombin (F2, Homo sapiens, UniProt P00734)
# Setting: whole 15-mer aptamer, many near background
Modification,mean fluorescence intensity
2'F-ANA at 2 4 7 11 12 13 14 15,111 a.u.
2'F-ANA at 1 3 6 7 8 13 15,224 a.u.
2'F-ANA at 2 3 4 13 14,303 a.u.
2'F-ANA at 1 2 3 4 6 7 9 10 11 12 13 15,81.4 a.u.
2'F-ANA at 1 4 5 9 11 13 14,44.5 a.u.
2'F-ANA at 1 3 4 7 9 10 13 14,56.4 a.u.
2'F-ANA at 1 2 4 6 7 8 9 10 12 13 14,49.5 a.u.
2'F-ANA at 4 6 8 10 11 13 15,64.5 a.u.
2'F-ANA at 3 5 9 10 15,66.6 a.u.
2'F-ANA at 4 7 10 11,86.6 a.u.
2'F-ANA at 2 4 6 7 8 10 11 14 15,57.1 a.u.
2'F-ANA at 2 3 4 5 7 9 11 12 13,222 a.u.
2'F-ANA at 4 5 7 8 9 10 13 15,47.3 a.u.
2'F-ANA at 1 2 3 4 5 7 8 9 10 11 12 14 15,54.9 a.u.
2'F-ANA at 4 5 6 7 8 9 10 11 12 15,49.2 a.u.
2'F-ANA at 8 12 15,873 a.u.
2'F-ANA at 1 2 3 4 6 8 11 13,120 a.u.
2'F-ANA at 1 3 4 5 7 10 14,171 a.u.
2'F-ANA at 1 3 4 9 10 11 13,57.3 a.u.
2'F-ANA at 1 3 4 7 8 9 12 13 14 15,89.7 a.u.
2'F-ANA at 1 2 3 6 7 11 12 13 15,273 a.u.
2'F-ANA at 1 2 3 7 12,458 a.u.
2'F-ANA at 1 2 5 7 8 12 13 15,80.2 a.u.
2'F-ANA at 1 2 3 4 8 9 10 12 15,167 a.u.
2'F-ANA at 3 5 6 8 9 10 13 15,52.3 a.u.

# Excerpt of the above (study 2):
Change,normalised enrichment score
R6A,-0.96
I9F,2.26
E8A,0.545
S1A,0.333
R5K I9L,0.0291
